Experimental data of several laboratories.
Each line is one published result; not all experiments were run side by side. Numbers after ± are the reported error.
Method: steady-state kinetics
B1: enzyme (Talaromyces verruculosus, UniProt A0A348FUE1); chain MSPMDLQESAAALVRQLGERVEDRRGFGFMSPAIYDTAWVSMISKTIDDQKTWLFAECFQYILSHQLEDGGWAMYASEIDAILNTSASLLSLKRHLSNPYQITSITQEDLSARINRAQNALQKLLNEWNVDSTLHVGFEILVPALLRYLEDEGIAFAFSGRERLLEIEKQKLSKFKAQYLYLPIKVTALHSLEAFIGAIEFDKVSHHKVSGAFMASPSSTAAYMMHATQWDDECEDYLRHVIAHASGKGSGGVPSAFPSTIFESVWPLSTLLKVGYDLNSAPFIEKIRSYLHDAYIAEKGILGFTPFVGADADDTATTILVLNLLNQPVSVDAMLKEFEEEHHFKTYSQERNPSFSANCNVLLALLYSQEPSLYSAQIEKAIRFLYKQFTDSEMDVRDKWNLSPYYSWMLMTQAITRLTTLQKTSKLSTLRDDSISKGLISLLFRIASTVVKDQKPGGSWGTRASKEETAYAVLILTYAFYLDEVTESLRHDIKIAIENGCSFLSERTMQSDSEWLWVEKVTYKSEVLSEAYILAALKRAADLPDENAEAAPVINGISTNGFEHTDRINGKLKVNGTNGTNGSHETNGINGTHEIEQINGVNGTNGHSDVPHDTNGWVEEPTAINETNGHYVNGTNHETPLTNGISNGDSVSVHTDHSDSYYQRSDWTADEEQILLGPFDYLESLPGKNMRSQLIQSFNTWLKVPTESLDVIIKVISMLHTASLLIDDIQDQSILRRGQPVAHSIFGTAQAMNSGNYVYFLALREVQKLQNPKAISIYVDSLIDLHRGQGMELFWRDSLMCPTEEQYLDMVANKTGGLFCLAIQLMQAEATIQVDFIPLVRLLGIIFQICDDYLNLKSTAYTDNKGLCEDLTEGKFSFPIIHSIRSNPGNRQLINILKQKPREDDIKRYALSYMESTNSFEYTRGVVRKLKTEAIDTIQGLEKHGLEENIGIRKILARMSLEL
B2: enzyme D25A (Nitrosopumilus maritimus, UniProt A9A5X4); chain MDSQKFDSIIFDCDGVLVDITQSYAKTIDKTCRYVLKEFAKIDSITIDHKIIDGFKSSGGFNDEVDLVYAAILSLYTANKLNKKPSEFIYDVISNTDKTGIRSVQSYLESIYDVSEFLSKLGSLGDRHNNPVYSIFDQFFFGPELYGKLFDKQSKFSEEGMISNDKVILSVSLLETLQKEFGKKIAVVTGRGIESIRYSLKDMMDYFDTKNSAFLEDEPRELAKPNPATLIRAIQSMESKNCLYVGDSMEDYMMAKDAAQAGHSTTFCAIVGTSTNPEDRRKLFADSGVEMILESINDIPKVLNLV
B3: enzyme (Azotobacter vinelandii, UniProt C1DN94); chain MSESPLRLDRLRDFVSALGELLDRHPDEESVLREGRSLLGELVRHDDWLPEEFAQPDPERYQQYLLHADSRQRFSVVSFVWGPGQTTPVHDHRVWGLIGMLRGAEDAQSFELGAEGLRPIGDPVRLSPGQVEAVSPRIGDIHRVFNASPDQPSISIHVYGANIGAVRRAVYLPDGSEKPFISGYSNQFLPNIWDQSKESARP
B4: enzyme K234A (Methanosarcina mazei, UniProt Q8PVB1); chain MSEQRSVPLREHLLALKPCRHGGLIQETSETYGIPENEILDFSANFNPLGSPFDYPENGLNFEDIIKKSCGKLLEYPDNRYVEFREAAARFVGLGVTPQSIVPGNGSTEIVRLVVESVIEKGDKVLLPWPTFGEYEMQCRITGAEPVCPSQEEVNTLPDEVLEEAKILFICNPNNPTGKLRTREELKVLAERCREHKTLLYVDEAFIELSDPSQSVADLPAENNYVFVMRSLTADFAIPGIRMGFGIAPPAMADILNTARLSWNLGAIANNTGIALLNIEGGIDSPYLKKAREMILKEGETLKAKIDRIRGFEAGEVNVNFILVDVSKFMLNSSELTARLAARGVLVRDCVSFHGLGKNYIRVAVRTEKENDRLIAAIGDVITEWGREQAKNELQHVIEKASEEGIGGRKTCEYYPCHFEGQNCTFCFCPFYPCENEKTGGKWIQSSRGGRVWSCVDCHLVHKKEIAQKILDCLMHEGDTDELVKVAWKEVMEPIL
B5: enzyme S252E/S281E/S285E/S287E (Schizosaccharomyces pombe, UniProt P78804); chain MSTPYEPEFQQAYKEIVGSIESSKLFEVHPELKRVLPIISIPERVLEFRVTWEDDKGNCRVNTGYRVQFNSALGPYKGGLRFHPSVNLSILKFLGFEQIFKNALTGLPMGGGKGGSDFDPKGKSDNEIRRFSQAFMRQLFRYIGPQTDVPAGDIGVTGFVVMHMFGEYKRLRNEYSGVVTGKHMLTGGSNIRPEATGYGVVYYVKHMIEHRTKGAETLKGKRVAISGSGNVAQYAALKCIQEGAIVKSISDEKGVLIAKTAEGLVPEEIHEIMALKEKRAEIADEAELCKKHHYIAGARPWTNVGEIDIALPCATQNEVSGEEAAALIKQGCRYVAEGSNMGSSAEAVEVFEKSRASGEGCWLAPGKAANAGGVAVSGLEMAQNAQFSTWTHAEVDAKLAGIMQNIFEQSTDVASKYCDSGSNNIPSLVDGANIAGFLKVATAMQAVGDWW
B6: enzyme (Lactiplantibacillus plantarum, UniProt Q06115); chain CTAITYQSYNNYFGRNFDYEISYNEMVTITPRKYPLVFRKVENLDHHYAIIGITADVESYPLYYDAMNEKGLCIAGLNFAGYADYKKYDADKVNITPFELIPWLLGQFSSVREVKKNIQKLNLVNINFSEQLPLSPLHWLVADKQESIVIESVKEGLKIYDNPVGVLTNNPNFDYQLFNLNNYRALSNSTPQNSFSEKVDLDSYSRGMGGLGLPGDLSSMSRFVRAAFTKLNSLSMQTESGSVSQFFHILGSVEQQKGLCEVTDGKYEYTIYSSCCDMDKGVYYYRTYDNSQINSVSLNHEHLDTTELISYPLRSEAQYYAVN
B7: enzyme (UniProt A0A0P0CH59); chain MRIALFSDIHANLPALEAVLANMETQQLDAIYCLGDLVGYAPWPNEVVAEIRKRRIPTIAGNYDEGVGLWSPNCGCAYKTDTEKDLGQQSIDFTNNVVTEETRKYLRMLPRQLRLTFMDGSKEENKIELLLVHGSPRKINEYLFEDRPEKSFLKMMEEANADLLFFGHTHKPYHRAMPYEHEGQTRYRHAINIGSVGKPKDGDPRTGYVVVELTPESSLTQKDSIKVEFIRVPYDVETAAQAVEASPLPNEFAQMLRTA
B8: aspC A106G/A218G/F210I/I29V/I33V/I68L/I71L/N30D/N64T/S135A/T100S/V136I/V375I (Escherichia coli, UniProt P00509); chain MFENITAAPADPILGLADLFRADERPGKVDLGVGVYKDETGKTPVLTSVKKAEQYLLENETTKTYLGLDGLPEFGRCTQELLFGKGSALINDKRARTAQSPGGTGGLRVAADFLAKNTSVKRVWVSNPSWPNHKAIFNSAGLEVREYAYYDAENHTLDFDALINSLNEAQAGDVVLFHGCCHNPTGIDPTLEQWQTLAQLSVEKGWLPLIDFAYQGFGRGLEEDAEGLRAFAAMHKELIVASSYSKNFGLYNERVGACTLVAADSETVDRAFSQMKAAIRANYSNPPAHGASVVATILSNDALRAIWEQELTDMRQRIQRMRQLFVNTLQEKGANRDFSFIIKQNGMFSFSGLTKEQVLRLREEFGVYAVASGRINVAGMTPDNMAPLCEAIVAVL
B9: enzyme (Arabidopsis thaliana, UniProt Q9LY48); chain MNIFQDWPEPIVRVQSLSESNLGAIPNRYVKPLSQRPNITPHNKHNPQTTTIPIIDLGRLYTDDLTLQAKTLDEISKACRELGFFQVVNHGMSPQLMDQAKATWREFFNLPMELKNMHANSPKTYEGYGSRLGVEKGAILDWSDYYYLHYQPSSLKDYTKWPSLPLHCREILEDYCKEMVKLCENLMKILSKNLGLQEDRLQNAFGGKEESGGCLRVNYYPKCPQPELTLGISPHSDPGGLTILLPDEQVASLQVRGSDDAWITVEPAPHAFIVNMGDQIQMLSNSIYKSVEHRVIVNPENERLSLAFFYNPKGNVPIEPLKELVTVDSPALYSSTTYDRYRQFIRTQGPRSKCHIDELKSPR
B10: enzyme (Treponema denticola, UniProt Q73LY9); chain QTNGTMPKRKFVIAFHASVNTDKTGKNLIKELPDLQKRGINTLFLEIGYNYQWKSDPKLYNKYVLSETVAREIAAECRRLSIDLIPEINCLGHQSWENETFALLKAYPELDETPGLYPSNKDIYCRSLCSSNEKVYTILFGLIDEITEVFSVKKIHVGLDEVFLIGEDACPLCRGKDKAELFAGAVNRLYDHCVKKRGFTMYMWGDRLIDSEDEDSGYKGEYESSCNGTYPAVDLIPKDIIICDWHYDELERYGSIPYFLNKGFRVLPTSFKGIKAVNALIDYSLLYKDNPAMLGHMYTAWDNFTNKNLSRYKPMVKTIDKLKAGN
Chain of UniProt Q96C36 (whole entry, unmodified, looked up): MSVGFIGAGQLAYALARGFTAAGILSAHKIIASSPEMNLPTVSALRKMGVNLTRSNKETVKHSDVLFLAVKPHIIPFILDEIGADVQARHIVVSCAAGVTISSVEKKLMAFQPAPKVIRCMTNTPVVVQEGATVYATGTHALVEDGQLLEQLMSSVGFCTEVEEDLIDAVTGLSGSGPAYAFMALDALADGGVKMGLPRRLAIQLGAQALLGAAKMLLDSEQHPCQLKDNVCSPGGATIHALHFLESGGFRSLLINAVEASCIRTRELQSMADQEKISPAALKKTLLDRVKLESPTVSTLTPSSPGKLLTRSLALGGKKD
Chain of UniProt O80970 (whole entry, looked up): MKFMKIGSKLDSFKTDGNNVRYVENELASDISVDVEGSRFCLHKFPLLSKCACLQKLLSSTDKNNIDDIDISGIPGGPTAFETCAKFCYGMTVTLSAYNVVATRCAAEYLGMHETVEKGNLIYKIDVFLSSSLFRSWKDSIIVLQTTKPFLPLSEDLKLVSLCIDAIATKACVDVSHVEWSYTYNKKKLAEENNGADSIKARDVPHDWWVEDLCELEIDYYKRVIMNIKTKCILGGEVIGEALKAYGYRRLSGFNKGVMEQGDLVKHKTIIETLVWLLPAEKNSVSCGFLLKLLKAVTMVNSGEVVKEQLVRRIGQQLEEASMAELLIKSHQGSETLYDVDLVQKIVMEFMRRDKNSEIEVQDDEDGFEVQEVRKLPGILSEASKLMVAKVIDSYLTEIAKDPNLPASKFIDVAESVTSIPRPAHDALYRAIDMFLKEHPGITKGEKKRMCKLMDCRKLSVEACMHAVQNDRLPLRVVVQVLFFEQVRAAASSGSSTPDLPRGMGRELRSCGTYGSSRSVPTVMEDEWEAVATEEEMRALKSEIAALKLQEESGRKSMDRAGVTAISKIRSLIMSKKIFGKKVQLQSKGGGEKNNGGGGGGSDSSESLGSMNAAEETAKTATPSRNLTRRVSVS
Chain of UniProt P09546 (whole entry, looked up): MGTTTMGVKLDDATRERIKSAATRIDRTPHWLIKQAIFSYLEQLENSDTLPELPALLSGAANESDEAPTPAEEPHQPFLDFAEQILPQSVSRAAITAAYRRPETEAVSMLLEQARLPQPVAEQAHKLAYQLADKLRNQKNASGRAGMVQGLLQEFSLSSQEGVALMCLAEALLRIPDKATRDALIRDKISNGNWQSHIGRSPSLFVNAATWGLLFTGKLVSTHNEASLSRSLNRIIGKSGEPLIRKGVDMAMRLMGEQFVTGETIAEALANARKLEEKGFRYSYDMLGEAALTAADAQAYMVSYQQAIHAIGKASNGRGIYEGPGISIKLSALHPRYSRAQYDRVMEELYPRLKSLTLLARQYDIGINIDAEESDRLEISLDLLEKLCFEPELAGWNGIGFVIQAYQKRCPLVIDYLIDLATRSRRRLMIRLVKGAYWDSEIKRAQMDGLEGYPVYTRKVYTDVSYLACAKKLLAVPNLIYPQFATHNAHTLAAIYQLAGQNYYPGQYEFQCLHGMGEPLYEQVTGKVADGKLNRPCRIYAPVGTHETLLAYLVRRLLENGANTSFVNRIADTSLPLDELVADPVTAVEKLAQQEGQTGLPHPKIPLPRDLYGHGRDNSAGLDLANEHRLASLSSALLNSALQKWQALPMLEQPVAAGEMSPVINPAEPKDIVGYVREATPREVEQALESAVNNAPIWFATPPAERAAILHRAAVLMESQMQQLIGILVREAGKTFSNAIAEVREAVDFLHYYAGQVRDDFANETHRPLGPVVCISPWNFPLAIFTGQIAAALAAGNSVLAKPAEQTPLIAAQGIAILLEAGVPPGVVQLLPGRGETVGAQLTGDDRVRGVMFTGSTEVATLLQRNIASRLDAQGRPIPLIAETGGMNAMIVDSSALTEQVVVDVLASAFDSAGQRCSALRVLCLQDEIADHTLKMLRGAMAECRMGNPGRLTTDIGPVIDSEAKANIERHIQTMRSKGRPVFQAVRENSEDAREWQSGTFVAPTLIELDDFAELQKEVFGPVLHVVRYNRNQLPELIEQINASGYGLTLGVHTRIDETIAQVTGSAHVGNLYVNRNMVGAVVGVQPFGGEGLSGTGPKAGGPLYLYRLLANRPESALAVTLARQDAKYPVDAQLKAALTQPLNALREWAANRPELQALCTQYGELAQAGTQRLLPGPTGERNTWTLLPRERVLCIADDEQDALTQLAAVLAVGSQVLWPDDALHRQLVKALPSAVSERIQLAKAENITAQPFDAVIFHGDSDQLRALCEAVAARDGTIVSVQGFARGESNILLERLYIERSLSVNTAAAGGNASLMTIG
Chain of UniProt P26208 (whole entry, looked up): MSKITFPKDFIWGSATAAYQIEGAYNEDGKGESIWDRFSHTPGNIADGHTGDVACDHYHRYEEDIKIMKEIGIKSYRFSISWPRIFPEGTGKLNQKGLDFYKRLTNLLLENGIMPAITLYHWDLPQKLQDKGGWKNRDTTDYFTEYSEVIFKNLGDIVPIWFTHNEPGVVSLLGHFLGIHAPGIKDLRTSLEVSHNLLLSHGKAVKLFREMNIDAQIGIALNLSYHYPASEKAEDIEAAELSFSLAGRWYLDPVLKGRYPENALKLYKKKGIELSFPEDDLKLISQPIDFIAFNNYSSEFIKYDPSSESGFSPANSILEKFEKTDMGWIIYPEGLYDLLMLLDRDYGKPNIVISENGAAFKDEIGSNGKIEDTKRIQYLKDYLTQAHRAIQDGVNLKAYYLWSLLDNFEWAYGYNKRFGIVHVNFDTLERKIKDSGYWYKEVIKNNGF

Substance	substrate	pH	temperature	notes	together with	kcat [s⁻¹]
B1 (enzyme)	CC(C)=CCOP(=O)(O)OP(=O)(O)O	pH 7.5	–	apparent	150 µM IPP	0.11 ± 0.01
spt R378K (Sphingomonas paucimobilis)	CCCCCCCCCCCCCC(=O)SCCNC(=O)CCNC(=O)[C@H](O)C(C)(C)COP(=O)(O)OP(=O)(O)OC[C@H]1O[C@@H](n2cnc3c(N)ncnc32)[C@H](O)[C@@H]1OP(=O)(O)O	–	–	–	PLP	0.19 ± 0.01
enzyme (Saccharina japonica, UniProt A0A097IUE3)	C=C(OP(=O)(O)O)C(=O)O	pH 6.5	25 °C	–	2 mM ADP	22.7 ± 0.9
bglA (Acetivibrio thermocellus, UniProt P26208)	O=[N+]([O-])c1ccc(O[C@@H]2O[C@H](CO)[C@@H](O)[C@H](O)[C@H]2O)cc1	pH 5.5	60 °C	–	–	839 ± 24
enzyme (UniProt A0A063Y6V3)	NC(=O)C1=CN([C@@H]2O[C@H](COP(=O)(O)OP(=O)(O)OC[C@H]3O[C@@H](n4cnc5c(N)ncnc54)[C@H](OP(=O)(O)O)[C@@H]3O)[C@@H](O)[C@H]2O)C=CC1	pH 7	30 °C	cofactor varied	–	0.24 ± 0.019
B2 (enzyme D25A)	N[C@H](COP(=O)(O)O)Cc1c[nH]cn1	pH 7.8	25 °C	–	–	0.029 ± 0.001
B3 (enzyme)	NCCS	pH 8	25 °C	–	O2	0.29 ± 0.08
enzyme (Thermothielavioides terrestris, UniProt G2R650)	Oc1cc(O)cc(/C=C/c2ccc(O)c(O)c2)c1	pH 8	45 °C	–	–	0.772 ± 0.028
B4 (enzyme K234A)	Nc1ncnc2c1ncn2[C@@H]1O[C@H](COP(=O)(O)OP(=O)(O)OP(=O)(O)O)[C@@H](O)[C@H]1O	pH 8.5	25 °C	apparent, anoxic	L-Thr 10 mM	0.01 ± 0.0003
enzyme (Arabidopsis thaliana, UniProt O80970)	Nc1nc2c(ncn2[C@@H]2O[C@H](COP(=O)(O)OP(=O)(O)OP(=O)(O)O)[C@@H](O)[C@H]2O)c(=O)[nH]1	pH 7.5	30 °C	–	–	0.0512
B5 (enzyme S252E/S281E/S285E/S287E)	NC(=O)C1=CN([C@@H]2O[C@H](COP(=O)(O)OP(=O)(O)OC[C@H]3O[C@@H](n4cnc5c(N)ncnc54)[C@H](O)[C@@H]3O)[C@@H](O)[C@H]2O)C=CC1	pH 7	30 °C	apparent	–	140 ± 3
B6 (enzyme)	C[C@H](CCC(=O)N[C@@H](Cc1ccccc1)C(=O)O)[C@H]1CC[C@H]2[C@@H]3[C@H](O)C[C@@H]4C[C@H](O)CC[C@]4(C)[C@H]3C[C@H](O)[C@]12C	pH 6.2	37 °C	–	–	16.1 ± 1.57
B7 (enzyme)	O=[N+]([O-])c1ccc(OP(=O)(O)O)cc1	–	37 °C	–	Ni2+ 0.25 mM	0.07 ± 0.00667
B8	N[C@@H](Cc1ccc(O)cc1)C(=O)O	pH 7.5	25 °C	–	PLP 20 µM	240
B9 (enzyme)	CC/C=C\C[C@@H]1C(=O)CC[C@@H]1CC(=O)O	pH 7.5	20 °C	–	–	0.0315
acsA D449E (Pseudomonas chlororaphis)	C#CCCC(=O)O	pH 7	–	–	–	0.0983 ± 0.00667
enzyme (Mycobacteroides abscessus, UniProt B1MGE0)	C/C(=C\C=C(/O)C(=O)O)C(=O)CC[C@@H]1C(=O)CC[C@]2(C)C(=O)CC[C@@H]12	pH 7.5	25 °C	–	–	9
B10 (enzyme)	CC(=O)N[C@H]1[C@H](Oc2ccc([N+](=O)[O-])cc2)O[C@H](CO)[C@@H](O[C@@H]2O[C@H](CO)[C@H](O)[C@H](O)[C@H]2O)[C@@H]1O	pH 6	40 °C	–	–	3.3 ± 0.2
PYCR2 (Homo sapiens, UniProt Q96C36)	NC(=O)C1=CN([C@@H]2O[C@H](COP(=O)(O)OP(=O)(O)OC[C@H]3O[C@@H](n4cnc5c(N)ncnc54)[C@H](OP(=O)(O)O)[C@@H]3O)[C@@H](O)[C@H]2O)C=CC1	pH 7.5	37 °C	apparent, cofactor varied	DL-P5C 5000 µM	24 ± 0.7
putA (Escherichia coli, UniProt P09546)	CC1=C(C)C(=O)C(C)=C(C)C1=O	pH 7.4	20 °C	–	proline 200 mM	1.2 ± 0.1
HNL E79H/K236M/T11G (Hevea brasiliensis)	CC(=O)Oc1ccc([N+](=O)[O-])cc1	pH 7.2	22 °C	–	–	0.0055 ± 0.000333

For quick reference, copied from above:
Substance	substrate	pH	temperature	notes	together with	kcat [s⁻¹]
enzyme (Mycobacteroides abscessus, UniProt B1MGE0)	C/C(=C\C=C(/O)C(=O)O)C(=O)CC[C@@H]1C(=O)CC[C@]2(C)C(=O)CC[C@@H]12	pH 7.5	25 °C	–	–	9
bglA (Acetivibrio thermocellus, UniProt P26208)	O=[N+]([O-])c1ccc(O[C@@H]2O[C@H](CO)[C@@H](O)[C@H](O)[C@H]2O)cc1	pH 5.5	60 °C	–	–	839 ± 24
